Measurements from different studies.
Each line is one published result; not all experiments were run side by side. “And” joins repeats or separate records; there may be more than shown. Numbers after ± are the reported error.

Compound	cell line	assay	test system	conditions	scale	measurement	value
CNC(=O)c1c(F)cccc1Nc1nc(Nc2cc3c(cc2OC)CCN3C(=O)CN(C)C)nc2[nH]ccc12	hiPSC-derived cardiomyocytes (iCell)	impedance (xCELLigence Cardio)	–	concentration not given, 2 h	baseline: control	beat rate	79.8%
CN1CC2(NN=C(c3ccccc3)S2)c2ccccc21 (stereo not shown)	H2373 and H2461 mesothelioma	MTT	–	10 µM, 24 h	–	viability loss	60 to 80%
COc1cnc2cccc(N3CCc4c(cc(Cn5ccnc5C)cc4-c4cn(C)nc4C(F)(F)F)C3=O)c2c1	ASPC1	cell growth, inhibitor	–	120 h	–	EC50	504 nM
CCc1cnc(N2CCC(c3nc(COc4ccc(-n5cnnn5)cc4)cs3)CC2)nc1	HEK293T	RNA-seq, item: HSP90AA1 mRNA	–	10 µM, 6 h	baseline: vehicle	log2 fold change	-0.192
CC(C)(c1ccc(O)cc1)c1ccc(O)cc1	HepG2 spheroids	Hoechst flow cytometry	–	10 µM, 24 h	–	S phase cells	7.85 ± 1.58%
OCc1ccc(-c2nn(Cc3ccccc3)c3ccc(F)cc23)o1	RBE	cell viability, CellTiter-Glo	–	–	–	IC50	960 nM
Cc1cc(N2CCc3c(c(C)nn3CC34CCC(NC(=O)[C@@H]5COCCN5)(CC3)CC4)C2)c2cnn(C)c2n1	human PBMC	ISG expression, qRT-PCR, item: 5-ISG panel	–	100 nM, together with: ssRNA	–	inhibition	96 ± 1%
NC(=O)NOCCCCCCCCCC[P+](c1ccccc1)(c1ccccc1)c1ccccc1.O=C([O-])C(F)(F)F	HCT-116	cell growth, live-cell imaging	–	15 µM, control at 90% confluence	–	cell confluence	8.68%
c1ccc2[nH]ccc2c1	HCT-8	RNA-seq, item: FAM167A	–	concentration not given	–	mRNA level, LS mean	3 counts per million
O=P1(C2CCCCC2)CCCCC1	SW-620	ELISA	–	IC50, 72 h	–	IL-6 level	2.1 ± 0.45 pg/mL
C=CC1=C(C)c2cc3[n-]c(cc4nc(cc5[n-]c(cc1n2)c(C)c5C=C)C(C)=C4CCC(=O)O)c(CCC(=O)O)c3C.[Zn+2]	SH-SY5Y	RNA-seq, item: TFPI2 mRNA	–	5 µM, 5 h	baseline: untreated cells	fold change	2.16
OCc1ccc(-c2nn(Cc3ccc(Cl)cc3)c3ccccc23)o1	RBE	cell viability, CellTiter-Glo	–	–	–	IC50	1580 nM
CCn1cc(-c2cc(Cn3ccoc3=N)cc3c2CCN([C@@H](C)c2cc(OC)ccn2)C3=O)c(C(F)(F)F)n1	Caov-3	cell growth, inhibitor	–	120 h	–	EC50	6.95 nM
Cc1ccccc1-n1nc(C)c(C(=O)Nc2ccc3ccccc3n2)c1C	Wnt-HEK293	Wnt/β-catenin signalling, inhibitor, luciferase reporter	–	1 µM	–	inhibition	> 70%
CC(C)C[C@@H]1NC(=O)[C@H](CC(C)C)NC(=O)[C@H](Cc2c[nH]c3ccccc23)NC(=O)[C@H](CO)NC(=O)[C@H](Cc2c[nH]c3ccccc23)NC(=O)[C@@H]2CCCN2C(=O)[C@H](CC(C)C)NC(=O)[C@H](Cc2c[nH]cn2)NC(=O)[C@@H]2CCCN2C(=O)[C@H](CC(N)=O)NC(=O)[C@H](C)NC(=O)[C@H](Cc2ccc(O)cc2)NC(=O)[C@H](CS)NC(=O)[C@H](CCCCNC(=O)CN2CCN(CC(=O)O)CCN(CC(=O)O)CCN(CC(=O)O)CC2)NC1=O [lutetium-177 labelled]	4T1	flow cytometry	–	0.4 Bq/cell, 72 h	–	dead cells	56.2%
CC(C)n1nc(-c2cc3cc(O)ccc3[nH]2)c2c(N)ncnc21	hiPSC-derived cardiomyocytes (iCell)	impedance (xCELLigence Cardio)	–	concentration not given, 2 h	baseline: control	beat rate	81.7%
NC(=O)NOCCCCCCCCCCCCCC[P+](c1ccccc1)(c1ccccc1)c1ccccc1.O=C([O-])C(F)(F)F	HCT-116	cell growth, live-cell imaging	–	10 µM, control at 90% confluence	–	cell confluence	1.89%
COc1cc(/C=C/C(=O)N2CCC=CC2=O)cc(OC)c1OC	MDA-MB-468 cells	quantitative RT-PCR, item: GSTZ1	–	30 µM, 6 h	baseline: time zero	mRNA level	114 ± 8.1%
O=C(/C=C/C=C/C=C/C1CCCCC1)NC1=C[C@@](O)(/C=C/C=C/C=C/C(=O)NC2=C(O)CCC2=O)[C@@H]2O[C@@H]2C1=O	NCI-H1373	cell growth, CellTiter-Glo	–	78 h	–	GI50	> 30000 nM
Cc1cnc(NC2CCOCC2)nc1-n1cnc(C(=O)NC(CN)c2cc(F)cc(Cl)c2)c1 (stereo not shown)	Rec1	flow cytometry	–	1 µM, 24 h	–	sub-G0 cells	1.7%

Compound	cell line	assay	test system	conditions	scale	measurement	value
Cn1cc(-c2ccc(-c3cncc(Cl)c3N3CCC4(CCNC4=O)CC3)cc2)cn1	COLO 205	gene expression, microarray, item: PLK4 (STK18) mRNA	–	concentration not given, 6 h	baseline: untreated cells	log2 fold change	-2.63
CC(=O)O[C@@]12CO[C@@H]1C[C@H](O)[C@@]1(C)C(=O)[C@H](O)C3=C(C)[C@@H](OC(=O)[C@H](O)[C@@H](NC(=O)OC(C)(C)C)c4ccccc4)C[C@@](O)([C@@H](OC(=O)c4ccccc4)[C@H]21)C3(C)C	4T1	flow cytometry	–	concentration not given	baseline: PBS	CD133-positive cells	3 fold
C=Cc1c2[n-]c(c1C)/C=c1\[n-]/c(c(C)c1C=C)=C\c1[n-]c(c(CCC(=O)O)c1C)/C=c1\[n-]c(c(C)c1CCC(=O)O)=C2.[Sn+4]	SH-SY5Y	RNA-seq, item: TRAF1 mRNA	–	5 µM, 5 h	baseline: untreated cells	fold change	3.75
OCc1ccc(-c2nn(Cc3ccccc3)c3ncccc23)o1	RBE	cell viability, CellTiter-Glo	–	–	–	IC50	15300 nM
Nc1cccc2c1C(=O)N(C1CCC(=O)NC1=O)C2=O (stereo not shown)	RPMI-8226	flow cytometry, item: CD36	–	concentration not given	baseline: comparator compound alone	surface marker level	30.5%
[Cl-].c1csc([I+]c2cccs2)c1	LS174T	–	–	10 µM, 1 h	baseline: control	extracellular H2O2 production	57 ± 3%
Cc1ccc(CNC(=O)Cn2cc(CSc3nc4ccccc4[nH]3)nn2)cc1	Caco-2	MTT	–	3.91 ppm	–	cytotoxicity	21.6%
CCCCc1nc(Cl)c(CO)n1Cc1ccc(-c2ccccc2-c2nn[nH]n2)cc1	human PBMC	RNA-seq, item: MMP14 mRNA	–	10 µg/mL, 24 h	baseline: untreated control	log2 fold change	1.82
NC(=O)NOCCCCCCCCCCCC[P+](c1ccccc1)(c1ccccc1)c1ccccc1.O=C([O-])C(F)(F)F	HCT-116	cell growth, live-cell imaging	–	0.1 µM, control at 90% confluence	–	cell confluence	91 ± 4.68%
OCc1ccc(-c2cn(Cc3ccccc3)c3ccccc23)o1	RBE	cell viability, CellTiter-Glo	–	–	–	IC50	7120 nM
C[C@H](CCC(=O)NCCS(=O)(=O)O)[C@H]1CC[C@H]2[C@@H]3CC[C@@H]4C[C@H](O)CC[C@]4(C)[C@H]3CC[C@]12C	human PKD renal epithelial cells	cell confluence	–	20 µM, 48 h	baseline: untreated	proliferation increase	60%
Cc1cnc2ccc3c(c2n1)N1CCC(O)N=C1N3C (stereo not shown)	BALB/c 3T3	colony formation	–	0.1 µM	–	plating efficiency	51%
Cn1cnc2c(F)c(Nc3ccc(Br)cc3F)c(C(=O)NOCCO)cc21	HCT-116	–	–	0.07813 µM, 72 h	–	viability	103%
COc1nc(NCc2cn(-c3ccc(C(=O)Nc4ccc(C(F)(F)F)cc4)cc3)nn2)nc(OC)n1	HCT-116	sandwich ELISA	culture supernatant	IC50, 72 h, unit not given	baseline: untreated	VEGF protein level	0.62
CC/C(=N\NC(=O)NCc1cccc(O)c1)c1ccc(O)c(C)c1O	SK-OV-3	Western blot, item: LATS	–	10 µM, 3 h, 3D gellan gum culture, unit not given	baseline: β-actin	protein level	0.77 ± 0.55
CC(C)NCC(O)c1ccc(O)c(O)c1 (stereo not shown)	mouse ventricular cardiomyocytes	–	–	dose not given, 0.415 s	–	sarcomere length	1.77 µm
Cc1cccc(-c2[nH]c(CNc3ccccc3F)nc2-c2ccc3ncnn3c2)n1	CD8+ T cells from myeloma patient	ELISA	human	0.5 µM	–	TNF-alpha production	1.02% and 0.994% and 1.17% and 0.972% and 1.15% and 1.12%
O=C(C[C@@H](C(F)F)n1ccc(F)n1)N1CCC(O)(Cn2cnc3c(cnn3-c3ccc(F)cc3)c2=O)CC1	CHP-212 parental	PI flow cytometry	–	1 µM, 24 h	–	G1 phase cells	74.8%
CCn1cc(-c2cc(Cn3ccnc3)cc3c2CCN([C@H](c2cc(OC)ccn2)C2CC2)C3=O)c(C(F)(F)F)n1	NCI-H1373	cell growth, inhibitor	–	120 h	–	EC50	> 30000 nM
CC(=O)c1nn(-c2ccc(Cl)cc2)/c(=N/N=C(\C)c2ccc(NC(=O)c3ccc(C)cc3)cc2)s1	MCF7	–	–	5 µM	–	viability	5.26%

Repeated from above:
Compound	cell line	assay	test system	conditions	scale	measurement	value
COc1cc(/C=C/C(=O)N2CCC=CC2=O)cc(OC)c1OC	MDA-MB-468 cells	quantitative RT-PCR, item: GSTZ1	–	30 µM, 6 h	baseline: time zero	mRNA level	114 ± 8.1%
O=C(/C=C/C=C/C=C/C1CCCCC1)NC1=C[C@@](O)(/C=C/C=C/C=C/C(=O)NC2=C(O)CCC2=O)[C@@H]2O[C@@H]2C1=O	NCI-H1373	cell growth, CellTiter-Glo	–	78 h	–	GI50	> 30000 nM
Cc1cnc(NC2CCOCC2)nc1-n1cnc(C(=O)NC(CN)c2cc(F)cc(Cl)c2)c1 (stereo not shown)	Rec1	flow cytometry	–	1 µM, 24 h	–	sub-G0 cells	1.7%
Cn1cc(-c2ccc(-c3cncc(Cl)c3N3CCC4(CCNC4=O)CC3)cc2)cn1	COLO 205	gene expression, microarray, item: PLK4 (STK18) mRNA	–	concentration not given, 6 h	baseline: untreated cells	log2 fold change	-2.63
CC(=O)O[C@@]12CO[C@@H]1C[C@H](O)[C@@]1(C)C(=O)[C@H](O)C3=C(C)[C@@H](OC(=O)[C@H](O)[C@@H](NC(=O)OC(C)(C)C)c4ccccc4)C[C@@](O)([C@@H](OC(=O)c4ccccc4)[C@H]21)C3(C)C	4T1	flow cytometry	–	concentration not given	baseline: PBS	CD133-positive cells	3 fold
C=Cc1c2[n-]c(c1C)/C=c1\[n-]/c(c(C)c1C=C)=C\c1[n-]c(c(CCC(=O)O)c1C)/C=c1\[n-]c(c(C)c1CCC(=O)O)=C2.[Sn+4]	SH-SY5Y	RNA-seq, item: TRAF1 mRNA	–	5 µM, 5 h	baseline: untreated cells	fold change	3.75
